Measured values gathered from unrelated publications.
Parts stem from different laboratories: compare values within a part only. Values joined by “and” are separate records of one study, mostly repeats; a detail may differ.

Series 1
Organism: Sarcocystis neurona
Read-out: parasite growth
Concentration: 10 µM
Time: 96 h
Baseline: untreated
| Structure (SMILES) | log2 fold change |
| --- | --- |
| C/C(=C\C(=O)OCCCCCCCCC(=O)O)C[C@@H]1OC[C@H](C[C@@H]2O[C@H]2[C@@H](C)[C@H](C)O)[C@@H](O)[C@H]1O | -0.11 |
| CO/N=C(\C(=O)N[C@@H]1C(=O)N2C(C(=O)O)=C(COC(N)=O)CS[C@H]12)c1ccco1 | 0.24 |
| CC(C)Oc1ccc2c(=O)c(-c3ccccc3)coc2c1 | 2.59 |
| C/C=C1\[C@H]2C=C(C)C[C@]1(N)c1ccc(=O)[nH]c1C2 | 0.29 |
| CCCC(CCC)C(=O)O | 0.26 |
| CC12CC3CC(C)(C1)CC(N)(C3)C2 | 0.32 |
| c1ccc(CC2=NCCN2)cc1 | 0.36 |
| CC(C)(C(=O)c1cccnc1)c1cccnc1 | 0.39 |
| c1ccc2[nH]c(-c3cscn3)nc2c1 | 2.12 |
| CC1=C(/C=C/C(C)=C/C=C/C(C)=C/C(=O)O)C(C)(C)CCC1 | 0.48 |
| O=C(O)C[C@H](O)C[C@H](O)/C=C/c1c(C2CC2)nc2ccccc2c1-c1ccc(F)cc1 | -0.1 |
| CN1CCC(=C2c3ccccc3C=Cc3ccccc32)CC1 | -0.19 |
| CC[C@]1(O)C[C@H]2CN(CCc3c([nH]c4ccccc34)[C@@](C(=O)OC)(c3cc4c(cc3OC)N(C=O)[C@H]3[C@@](O)(C(=O)OC)[C@H](OC(C)=O)[C@]5(CC)C=CCN6CC[C@]43[C@@H]65)C2)C1 | -0.09 |
| CCCNCC(O)COc1ccccc1C(=O)CCc1ccccc1 (centres unmarked) | -1.55 |
| CO[C@H]1/C=C/O[C@@]2(C)Oc3c(C)c(O)c4c(O)c(c(/C=N/N5CCN(C6CCCC6)CC5)c(O)c4c3C2=O)NC(=O)/C(C)=C\C=C\[C@H](C)[C@H](O)[C@@H](C)[C@@H](O)[C@@H](C)[C@H](OC(C)=O)[C@@H]1C | 0.21 |

Series 2
Cell line: normal organoid sample G
Technique: CellTiter-Glo
Host: human
Sample: normal-adjacent epithelium
Concentration: 1 µM
Baseline: DMSO
| SMILES | viability |
| --- | --- |
| Cc1c(NC(=O)c2ccc(C(C)(C)C)cc2)cccc1-c1cn(C)c(=O)c(Nc2ccc(C(=O)N3CCOCC3)cc2)n1 | 102% |
| CN(C)CC#Cc1ccc(OCCCc2sc(N3CCc4cccc(C(=O)Nc5nc6ccccc6s5)c4C3)nc2C(=O)O)c(F)c1 | 55.8% |
| CNC(=O)c1cc(C(=O)N[C@H]2[C@@H]3COC[C@@H]32)cc2c1O[C@@H](CF)[C@@H]2c1ccccc1 | 93.6% |
| CN1CCN(c2cnc3c(C4CCN(C(=O)c5ccc(OC(F)(F)F)cc5N)CC4)ncnc3c2)CC1 | 110% |
| CN(C)C(=O)Cn1cc(-c2ccc(-c3cncc4ccccc34)cc2)cn1 | 78% |
| Cc1c(Oc2ccc(F)cc2)c(OC(C)C)nn1-c1ccc(C2CC2)cn1 | 107% |
| CNc1nc(-c2ccc3c(N)n[nH]c3c2)cc(N2C[C@@H](C(=O)NC3CCCCC3)CC[C@H]2C)n1 | 80.8% |
| CN(C)[C@H]1CCN(c2cc(-c3ccccc3)nc3ccnn23)C1 | 119% |
| Cn1cc(Cl)c2c(Oc3c(F)cc(Nc4cc(Cl)nc(N)n4)cc3F)ccnc21 | 110% |
| Cn1c(-c2csc(C3CCN(Cc4nc5ncccc5[nH]4)CC3)n2)nc2ccccc21 | 104% |
| C[C@H](c1cccc(C#N)c1)n1cc(Cl)cc(C(N)=O)c1=N | 101% |
| O=C(NS(=O)(=O)c1ccc(NCC2CCOCC2)c([N+](=O)[O-])c1)c1ccc(N2CCN(Cc3ccc(C(F)(F)F)cc3-c3ccc(Cl)cc3)CC2)cc1Oc1cnc2[nH]ccc2c1 | 100% |
| O=C(NNS(=O)(=O)c1ccccc1)c1cc(-c2ccnnc2)ccc1F | 104% |
| CO[C@@H](C)c1c(Nc2ccc([C@@H](N(C)C(=O)C3CCS(=O)(=O)CC3)C(F)(F)F)cc2)cnc2cc(Cl)nn12 | 83.6% |
| CN(C(=O)c1ccccc1)c1cc(N(C)c2ccc3c(c2)CCc2ccc(C(=O)NCCN4CCOCC4)cc2C3=O)ccc1F | 105% |
| Cc1ccccc1Oc1cc(-n2c(=O)cc(C(F)(F)F)[nH]c2=O)c2ccccc2c1Cl | 111% |

Series 3
Compound: CC(=O)N[C@@H](Cc1c[nH]c2ccccc12)C(=O)N[C@@H](CCC(=O)C=[N+]=[N-])C(=O)OC(C)C
Host: C57BL/6 CES1-/- mice, EL4 tumour
Route: subcutaneous
Dose: 0.3 mg/kg/day DON equivalent
Time: 5 days
| assay | test system | conditions | scale | metabolite peak intensity |
| --- | --- | --- | --- | --- |
| LC-MS/MS metabolomics, item: 3-hydroxykynurenine | EL4 tumour | normalised to tissue mass | higher = more metabolite | 186000 a.u. and 143000 a.u. and 563000 a.u. and 353000 a.u. |
| UPLC-MS/MS, item: indolepropionate | EL4, tumour | normalised to tissue mass | higher = more metabolite | 452000 a.u. and 563000 a.u. and 1.25e+06 a.u. and 853000 a.u. and 308000 a.u. and 741000 a.u. |
| UPLC-MS/MS, item: indolelactate | EL4, tumour | normalised to tissue mass | higher = more metabolite | 664000 a.u. and 329000 a.u. and 692000 a.u. and 372000 a.u. and 487000 a.u. |
| LC-MS/MS metabolomics, item: 2,6-dihydroxybenzoic acid | EL4 tumour | normalised to tissue mass | higher = more metabolite | 128000 a.u. and 326000 a.u. and 144000 a.u. and 76000 a.u. and 269000 a.u. and 114000 a.u. |
| UPLC-MS/MS, item: malate | EL4, tumour | normalised to tissue mass | higher = more metabolite | 3.18e+09 a.u. and 5.08e+09 a.u. and 3.97e+09 a.u. and 2.69e+09 a.u. and 3.02e+09 a.u. and 4.03e+09 a.u. |
| UPLC-MS/MS metabolomics, item: N-acetylasparagine | EL4 tumour | normalised to tissue mass | higher = more metabolite | 1.59e+06 a.u. and 1.74e+06 a.u. and 1.98e+06 a.u. and 1.5e+06 a.u. and 969000 a.u. and 1.33e+06 a.u. |
| UPLC-MS/MS metabolomics, item: glutamate gamma-methyl ester | EL4 tumour | normalised to tissue mass |  | 1.72e+07 a.u. and 2.8e+07 a.u. and 1.81e+07 a.u. and 2.15e+07 a.u. and 2.07e+07 a.u. and 3.49e+07 a.u. |
| UPLC-MS/MS metabolomics, item: gamma-glutamyl-epsilon-lysine | EL4 tumour | normalised to tissue mass |  | 8.64e+06 a.u. and 9.01e+06 a.u. and 5.12e+06 a.u. and 6.7e+06 a.u. and 2.38e+06 a.u. and 1.11e+07 a.u. |
| UPLC-MS/MS metabolomics, item: N-acetylglycine | EL4 tumour | normalised to tissue mass | higher = more metabolite | 2.84e+06 a.u. and 3.12e+06 a.u. and 2.94e+06 a.u. and 2.8e+06 a.u. and 1.34e+06 a.u. and 2.06e+06 a.u. |
| LC-MS/MS metabolomics, item: pipecolate | EL4 tumour |  | higher = more metabolite | 1.57e+08 a.u. and 1.25e+08 a.u. and 8.42e+07 a.u. and 1.12e+08 a.u. and 3.63e+07 a.u. and 5.66e+07 a.u. |

Series 4
Target: DNA polymerase theta, ATPase domain (POLQ, Homo sapiens, UniProt O75417)
Chain of UniProt O75417 (whole entry, unmodified, looked up): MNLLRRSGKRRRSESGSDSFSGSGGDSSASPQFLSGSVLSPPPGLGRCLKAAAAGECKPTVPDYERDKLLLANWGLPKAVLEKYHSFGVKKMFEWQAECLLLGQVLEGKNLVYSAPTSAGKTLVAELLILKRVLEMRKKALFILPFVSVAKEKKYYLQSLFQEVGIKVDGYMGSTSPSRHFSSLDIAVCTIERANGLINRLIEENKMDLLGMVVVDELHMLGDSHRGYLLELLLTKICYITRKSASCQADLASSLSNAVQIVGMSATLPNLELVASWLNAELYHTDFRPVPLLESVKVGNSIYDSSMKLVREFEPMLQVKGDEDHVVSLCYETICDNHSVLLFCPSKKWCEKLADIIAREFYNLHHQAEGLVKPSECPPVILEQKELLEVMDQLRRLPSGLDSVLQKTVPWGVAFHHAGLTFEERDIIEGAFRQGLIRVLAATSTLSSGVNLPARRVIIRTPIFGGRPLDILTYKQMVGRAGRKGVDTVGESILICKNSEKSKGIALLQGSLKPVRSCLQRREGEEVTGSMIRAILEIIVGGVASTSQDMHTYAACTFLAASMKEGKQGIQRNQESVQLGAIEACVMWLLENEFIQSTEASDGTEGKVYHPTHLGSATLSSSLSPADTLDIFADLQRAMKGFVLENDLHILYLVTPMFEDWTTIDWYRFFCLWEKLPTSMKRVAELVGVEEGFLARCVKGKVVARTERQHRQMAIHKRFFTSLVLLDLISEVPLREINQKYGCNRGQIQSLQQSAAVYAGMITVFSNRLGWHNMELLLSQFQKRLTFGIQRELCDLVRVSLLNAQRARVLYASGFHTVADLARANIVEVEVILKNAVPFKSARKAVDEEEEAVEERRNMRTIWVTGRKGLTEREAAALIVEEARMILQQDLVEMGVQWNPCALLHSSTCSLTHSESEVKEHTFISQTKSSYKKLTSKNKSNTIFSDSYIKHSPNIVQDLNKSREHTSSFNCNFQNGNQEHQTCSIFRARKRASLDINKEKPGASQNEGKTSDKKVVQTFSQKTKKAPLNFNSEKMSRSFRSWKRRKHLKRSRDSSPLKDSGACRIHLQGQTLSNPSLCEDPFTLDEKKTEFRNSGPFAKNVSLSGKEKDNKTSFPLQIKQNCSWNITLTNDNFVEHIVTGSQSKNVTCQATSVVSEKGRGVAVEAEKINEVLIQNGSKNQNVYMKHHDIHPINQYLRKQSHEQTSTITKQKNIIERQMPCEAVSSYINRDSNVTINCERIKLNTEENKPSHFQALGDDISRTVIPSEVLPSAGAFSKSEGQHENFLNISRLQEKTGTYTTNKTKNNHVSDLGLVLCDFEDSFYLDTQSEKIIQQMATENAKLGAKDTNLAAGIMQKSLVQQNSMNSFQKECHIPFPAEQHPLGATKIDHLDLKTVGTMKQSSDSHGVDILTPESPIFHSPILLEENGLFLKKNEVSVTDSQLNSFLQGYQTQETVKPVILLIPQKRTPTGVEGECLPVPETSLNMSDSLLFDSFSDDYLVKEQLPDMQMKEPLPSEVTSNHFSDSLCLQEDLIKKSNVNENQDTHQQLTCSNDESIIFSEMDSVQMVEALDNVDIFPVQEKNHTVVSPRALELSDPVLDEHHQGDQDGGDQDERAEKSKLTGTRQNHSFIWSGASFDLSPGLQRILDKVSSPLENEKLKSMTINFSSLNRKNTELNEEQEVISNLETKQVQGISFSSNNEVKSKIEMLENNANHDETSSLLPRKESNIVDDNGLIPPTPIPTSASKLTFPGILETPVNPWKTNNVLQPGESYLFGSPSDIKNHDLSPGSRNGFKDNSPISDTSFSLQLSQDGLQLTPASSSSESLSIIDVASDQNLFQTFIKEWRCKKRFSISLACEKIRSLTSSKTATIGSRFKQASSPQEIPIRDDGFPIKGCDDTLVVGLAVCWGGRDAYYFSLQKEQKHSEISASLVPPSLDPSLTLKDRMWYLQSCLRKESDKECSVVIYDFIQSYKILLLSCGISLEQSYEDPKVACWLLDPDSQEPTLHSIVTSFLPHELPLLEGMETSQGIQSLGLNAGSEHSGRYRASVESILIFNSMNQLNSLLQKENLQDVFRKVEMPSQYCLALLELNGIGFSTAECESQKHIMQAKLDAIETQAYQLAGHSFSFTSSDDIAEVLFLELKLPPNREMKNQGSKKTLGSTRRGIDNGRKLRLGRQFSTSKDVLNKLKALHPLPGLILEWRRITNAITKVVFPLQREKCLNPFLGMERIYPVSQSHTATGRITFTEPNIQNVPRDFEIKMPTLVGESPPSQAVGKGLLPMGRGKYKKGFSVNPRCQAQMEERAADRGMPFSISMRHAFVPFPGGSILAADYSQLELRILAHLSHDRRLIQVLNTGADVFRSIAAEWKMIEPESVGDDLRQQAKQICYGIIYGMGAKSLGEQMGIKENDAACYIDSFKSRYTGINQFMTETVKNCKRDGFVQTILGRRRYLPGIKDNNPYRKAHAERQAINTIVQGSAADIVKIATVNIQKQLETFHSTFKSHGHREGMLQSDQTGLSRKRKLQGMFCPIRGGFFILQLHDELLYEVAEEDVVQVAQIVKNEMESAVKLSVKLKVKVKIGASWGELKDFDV
Read-out: enzyme activity
Mode: inhibitor
Concentration: 77 µM
Baseline: untreated
| SMILES | remaining activity |
| --- | --- |
| O=C(/C=C/c1ccc(CN(CCO)CCc2c[nH]c3ccccc23)cc1)NO | 106% |
| C[C@@H](NCCCc1cccc(C(F)(F)F)c1)c1cccc2ccccc12 | 103% |
| C[C@@]12C[C@@]3(O)O[C@@H](O1)[C@]1(COC(=O)c4ccccc4)[C@H]3C[C@@]12O[C@@H]1O[C@H](CO)[C@@H](O)[C@H](O)[C@H]1O | 90.5% |
| COc1ccc2c3c([nH]c2c1)[C@H]1C[C@H]2[C@H](C[C@@H](O)[C@H](OC)[C@H]2C(=O)O)CN1CC3 | 104% |
| CC1CNc2c(cccc2S(=O)(=O)N[C@@H](CCCNC(=N)N)C(=O)N2CC[C@@H](C)C[C@@H]2C(=O)O)C1 (some centres unmarked) | 101% |
| CCC(=O)O[C@]1(C(=O)CCl)[C@@H](C)C[C@H]2[C@@H]3CCC4=CC(=O)C=C[C@]4(C)[C@@]3(F)[C@@H](O)C[C@@]21C | 95.9% and 101% |
| CC(C)(C)NCC(O)COc1cccc2c1C[C@H](O)[C@H](O)C2 (mixture of isomers) | 112% |
| O=C1Nc2ccc(Cl)cc2/C1=C/c1cc(Cl)c(O)c(Cl)c1 | 110% |
| NC(=O)c1ccccc1 | 96.2% |

For quick reference, copied from above (series 2):
| SMILES | viability |
| --- | --- |
| Cn1cc(Cl)c2c(Oc3c(F)cc(Nc4cc(Cl)nc(N)n4)cc3F)ccnc21 | 110% |
| Cn1c(-c2csc(C3CCN(Cc4nc5ncccc5[nH]4)CC3)n2)nc2ccccc21 | 104% |
| C[C@H](c1cccc(C#N)c1)n1cc(Cl)cc(C(N)=O)c1=N | 101% |
| O=C(NS(=O)(=O)c1ccc(NCC2CCOCC2)c([N+](=O)[O-])c1)c1ccc(N2CCN(Cc3ccc(C(F)(F)F)cc3-c3ccc(Cl)cc3)CC2)cc1Oc1cnc2[nH]ccc2c1 | 100% |
| O=C(NNS(=O)(=O)c1ccccc1)c1cc(-c2ccnnc2)ccc1F | 104% |
| CO[C@@H](C)c1c(Nc2ccc([C@@H](N(C)C(=O)C3CCS(=O)(=O)CC3)C(F)(F)F)cc2)cnc2cc(Cl)nn12 | 83.6% |
| CN(C(=O)c1ccccc1)c1cc(N(C)c2ccc3c(c2)CCc2ccc(C(=O)NCCN4CCOCC4)cc2C3=O)ccc1F | 105% |
